Measured values collected from several papers.
Each line is one published result; not all experiments were run side by side. ± gives the spread as reported.

Under “total corpora lutea count”, `Cc1ccc(OCC(=O)N(Cc2cccs2)c2ccn[nH]2)cc1` is recorded as 422 (Crl:CD(SD) rat, bred female; oral, 300 mg/kg/day, total per group, developmental toxicity).
With `CC(=CCC(O)C(C)=Cc1csc(C)n1)CC=CC(C)C(O)C(C)C(=O)C(C)(C)C(O)CC(=O)O` (centres unmarked) the AUC ratio was 9.27 ± 2.52% (human, plasma; intravenous infusion, 6.5 mg/m2 KOS-1584, 3 h infusion, cycle 1; baseline: metabolite over KOS-1584).
For `CC(C)[C@@H]1NC(=O)[C@H](Cc2ccccc2)NC(=O)[C@H](Cc2ccc(O)cc2)NC(=O)CCSSC[C@@H](C(=O)N2CCC[C@H]2C(=O)N[C@H](CCCNC(=N)N)C(=O)NCC(N)=O)NC(=O)[C@H](CCC(N)=O)NC1=O`, the glucose was 230 ± 12.1 mg/dL (Wistar rat, blood; intravenous, 100 µg/kg single dose, 72 h).
For `COc1ccc(C)cc1NC(=O)OC1CC2CCCC(C1)N2Cc1ccc(CC[18F])cc1` (centres unmarked), the tissue uptake was 22.4 ± 2.91 %ID/g (BALB/c mice, EMT6 tumour, kidney; 5 min).
With `CSCC[C@H](NC(=O)[C@H](Cc1ccc(O)cc1)NC(=O)[C@@H](CC(=O)O)NC(=O)CN1CCN(CC(=O)O)CCN(CC(=O)O)CCN(CC(=O)O)CC1)C(=O)NCC(=O)N[C@@H](Cc1c[nH]c2ccccc12)C(=O)N[C@@H](CCSC)C(=O)N[C@@H](CC(=O)O)C(=O)N[C@@H](Cc1ccccc1)C(N)=O` the tumour-to-kidney ratio was 0.06 (MF1 nude mouse, male, HT29-CCK2R xenograft; intravenous, 0.2 µg, 4 h, 111In-labelled; baseline: tumour over kidney).
With `CSCC[C@H](NC(=O)CNC(=O)[C@H](CC(=O)O)NC(=O)[C@@H](NC(=O)[C@@H](NC(=O)[C@@H](NC(=O)CNC(=O)[C@H](CCC(N)=O)NC(=O)[C@H](CCSC)NC(=O)[C@H](CC(=O)O)NC(=O)[C@H](C)NC(=O)[C@H](C)NC(=O)[C@@H](NC(=O)[C@H](CO)NC(=O)[C@@H](N)CC(C)C)[C@@H](C)O)C(C)C)C(C)C)[C@@H](C)O)C(=O)N[C@@H](C)C(=O)N[C@@H](CO)C(=O)NCC(=O)N[C@@H](CC(C)C)C(=O)N[C@@H](CC(=O)O)C(=O)N[C@@H](CCCCN)C(=O)N[C@@H](CC(=O)O)C(=O)N[C@@H](Cc1ccc(O)cc1)C(=O)N[C@@H](CC(C)C)C(=O)N[C@@H](CCCCN)C(=O)N1CCC[C@H]1C(=O)N[C@@H](CC(=O)O)C(=O)N[C@@H](CC(=O)O)C(=O)O` the Cmax was 13700 ng/mL (human, serum; intravenous, 4.16 mg/kg, patients, infusion).
Under tolerability, `CCCCCCCCCCCCCCCC(=O)N[C@@H](CCC(=O)NCCCC[C@H](NC(=O)[C@H](CC(=O)O)NC(=O)[C@H](CO)NC(=O)[C@@H](NC(=O)[C@H](Cc1ccccc1)NC(=O)[C@@H](NC(=O)CNC(=O)[C@H](CCC(=O)O)NC(=O)[C@H](CO)NC(=O)[C@@H](N)Cc1ccc(O)cc1)[C@@H](C)O)[C@@H](C)O)C(=O)N[C@@H](CO)C(=O)N[C@@H](CCCCN)C(=O)N[C@@H](Cc1ccc(O)cc1)C(=O)N[C@@H](CC(C)C)C(=O)N[C@@H](CC(=O)O)C(=O)N[C@@H](CO)C(=O)N[C@@H](CCC(N)=O)C(=O)N[C@@H](C)C(=O)N[C@@H](C)C(=O)N[C@@H](CCC(N)=O)C(=O)N[C@@H](CC(=O)O)C(=O)N[C@@H](Cc1ccccc1)C(=O)N[C@H](C(=O)N[C@@H](CCC(N)=O)C(=O)N[C@@H](Cc1c[nH]c2ccccc12)C(=O)N[C@@H](CC(C)C)C(=O)N[C@@H](CC(C)C)C(=O)N[C@@H](C)C(=O)NCC(=O)NCC(=O)N1CCC[C@H]1C(=O)N[C@@H](CO)C(=O)N[C@@H](CO)C(=O)NCC(=O)N[C@@H](C)C(=O)N1CCC[C@H]1C(=O)N1CCC[C@H]1C(=O)N1CCC[C@H]1C(=O)N[C@@H](CO)C(N)=O)C(C)C)C(=O)O` is recorded as “not toxic” (cynomolgus monkeys).
With `C[C@H](NCc1ccc(-c2ccc(C(F)(F)F)cc2)cc1)C(N)=O` the bioavailability was > 100% (Sprague-Dawley rat, plasma; oral, 10 mg/kg).
`COc1cccc2c1C(=O)c1c(O)c3c(c(O)c1C2=O)CC(O)(C(CO)=NNC(=O)CCCCC(=O)NNC(=O)CCCc1ccc(I)cc1)CC3OC1CC(N)C(O)C(C)O1` (centres unmarked) — result for toxicity: “not toxic” (athymic nude mice, KPC tumours; 20 mg/kg, KPC and KPC Cav1-/- tumours).
For `CC(C)C[C@@H](NC(=O)[C@@H](Cc1ccccc1)NC(=O)[C@H](N)Cc1ccccc1)C(=O)N[C@H](CCCCN)C(=O)N1CCC(N)(C(=O)O)CC1`, “volume of distribution” read 0.171 L/kg (human, plasma; intravenous, 15 µg/kg).
`CN(C)C(CNC(=O)Nc1cc(C(F)(F)F)ccc1N1CCOCC1)c1ccncc1` (centres unmarked) has a serum iron of 162 µg/dL (mouse, serum; intraperitoneal, 120 mg/kg single dose).
With `CC[C@H](C)[C@H](NC(=O)[C@H](CCCCN)NC(=O)CNC(=O)[C@H](CC(C)C)NC(=O)[C@@H](NC(=O)[C@H](C)NC(=O)[C@H](CCCCN)NC(=O)CNC(=O)[C@H](C)NC(=O)CNC(=O)[C@H](CCCCN)NC(=O)[C@H](CCSC)NC(=O)[C@H](CCCCN)NC(=O)[C@@H](NC(=O)[C@H](Cc1c[nH]c2ccccc12)NC(=O)[C@H](CC(C)C)NC(=O)[C@H](CCC(=O)O)NC(=O)[C@H](CCCCN)NC(=O)[C@H](CC(C)C)NC(=O)[C@@H](N)CC(C)C)[C@@H](C)O)C(C)C)C(=O)N[C@@H](CCCCN)C(=O)NCC(=O)N[C@@H](CC(C)C)C(=O)N[C@@H](CC(C)C)C(=O)O` the Stern-Volmer constant was 10.1 ± 1.15 M⁻¹ (acrylamide quenching; PBS, no lipid; 2 µM, added: acrylamide).
`CCCCCCCCCCCCC(=O)O.O=C1CCCC2C3CCCN4CCCC(CN12)C34` (centres unmarked) — result for “standard enthalpy of aggregation”: -0.734 kcal/mol (electrical conductivity; water; 293.15 K).
`CC[C@H](C)[C@H](NC(=O)[C@H](CCCCN)NC(=O)[C@H](CCCCN)NC(=O)[C@H](Cc1ccccc1)NC(=O)[C@H](CC(C)C)NC(=O)[C@@H](CCCCN)NC(=O)[C@H](Cc1c[nH]c2ccccc12)NC(=O)[C@H](CCCCN)NC(C)=O)C(=O)NCC(=O)N[C@@H](C)C(=O)N[C@H](C(=O)N[C@@H](CC(C)C)C(=O)N[C@H](CCCCN)C(=O)N[C@H](C(=O)N[C@@H](CC(C)C)C(N)=O)C(C)C)C(C)C` has a helical content of ~69% (circular dichroism; PE:PG:CL liposomes; 60 µM, lipid to peptide ratio 1; baseline: reference peptide).
`CC(C)[C@H](NC(=O)CNC(=O)[C@H](CCC(N)=O)NC(=O)[C@H](C)N)C(=O)O` — result for “subjects with adverse event”: 25% (human; concentration not given, single dose, all dose groups).
`CC(C)C[C@@H]1NC(=O)C[C@@H](C(=O)N[C@@H](Cc2c[nH]c3ccccc23)C(=O)N[C@@H](CC(N)=O)C(=O)N[C@@H](C)C(=O)N2CCC[C@H]2C(=O)NCC(=O)N[C@@H](Cc2c[nH]c3ccccc23)C(=O)N[C@@H](Cc2ccccc2)C(=O)O)NC(=O)[C@H](C)NC(=O)[C@H](CCC(N)=O)NC(=O)[C@H](C(C)C)NC(=O)[C@H](C)NC(=O)[C@H](C(C)C)NC(=O)[C@H](C(C)C)NC1=O` — result for thermal stability: “stable” (HPLC; 3 h, 95 °C).
Under “volume of distribution”, `CCCCCCCC(=O)OC[C@H](NC(=O)[C@H](CO)NC(=O)CN)C(=O)N[C@@H](Cc1ccccc1)C(=O)N[C@@H](CC(C)C)C(=O)N[C@@H](CO)C(=O)N1CCC[C@H]1C(=O)N[C@@H](CCC(=O)O)C(=O)N[C@@H](Cc1cnc[nH]1)C(=O)N[C@@H](CCC(N)=O)C(=O)N[C@@H](CCCNC(=N)N)C(=O)N[C@H](C(=O)N[C@@H](CCC(N)=O)C(=O)N[C@@H](CCC(N)=O)C(=O)N[C@@H](CCCNC(=N)N)C(=O)N[C@@H](CCCCN)C(=O)N[C@@H](CCC(=O)O)C(=O)N[C@@H](CO)C(=O)N[C@@H](CCCCN)C(=O)N[C@@H](CCCCN)C(=O)N1CCC[C@H]1C(=O)N1CCC[C@H]1C(=O)N[C@@H](C)C(=O)N[C@@H](CCCCN)C(=O)N[C@@H](CC(C)C)C(=O)N[C@@H](CCC(N)=O)C(=O)N1CCC[C@H]1C(=O)N[C@@H](CCCNC(=N)N)C(=O)O)C(C)C` is recorded as 0.078 ± 0.022 L/kg (human, both sexes, plasma; intravenous infusion, 5 µg/kg/h, 65 min infusion).
For `CC[C@@H](C)[C@@H](NC(=O)[C@@H](C)NC(=O)[C@@H](CCCCN)NC(=O)[C@@H](CC(C)C)NC(=O)[C@@H](C)NC(=O)[C@H](NC(=O)[C@@H](Cc1c[nH]cn1)NC(=O)[C@@H](CC(C)C)NC(=O)[C@H](NC(=O)[C@H](NC(=O)[C@@H](CCCCN)NC(=O)[C@@H](CCCCN)NC(=O)[C@@H](C)NC(=O)[C@@H](CO)NC(=O)[C@@H](CCCCN)NC(=O)[C@@H](Cc1ccccc1)NC(=O)[C@H](NC(=O)[C@@H](CCCCN)NC(=O)[C@@H](CC(C)C)NC(=O)[C@@H](Cc1ccccc1)NC(=O)[C@@H](CO)NC(=O)[C@@H](CCCCN)NC(=O)[C@@H](Cc1c[nH]c2ccccc12)NC(=O)[C@@H](CCCCN)NC(C)=O)[C@H](C)O)[C@H](C)O)C(C)C)[C@H](C)O)C(=O)N[C@H](CO)C(=O)N[C@H](CO)C(N)=O`, the helical content was 88% (circular dichroism; 50% trifluoroethanol buffer; 5 °C; baseline: reference peptide in TFE).
Under “lower limit of quantification”, `CCCCCOc1ccc(-c2cc(-c3ccc(C(=O)N[C@H]4C[C@@H](O)[C@@H](O)NC(=O)[C@@H]5[C@@H](O)[C@@H](C)CN5C(=O)[C@H]([C@H](O)CC(N)=O)NC(=O)[C@H]([C@H](O)[C@@H](O)c5ccc(O)c(O)c5)NC(=O)[C@@H]5C[C@@H](O)CN5C(=O)[C@H]([C@@H](C)O)NC4=O)cc3)no2)cc1` is recorded as < 0.05 µg/mL (human severe hepatic dysfunction, plasma; intravenous, up to 12 h, concentration below limit).
`CCn1ccc(-c2cc(-c3cnn(C)c3)cc([C@@H](C)NC(=O)c3cc(OCCN(C)C)ccc3C)c2)n1` has an oral bioavailability of 72.8% (C57BL/6J mice, male; oral, 50 mg/kg, versus i.v. 10 mg/kg).
`CCc1c2c(nc3ccc(OC4OC(C(=O)O)C(O)C(O)C4O)cc13)-c1cc3c(c(=O)n1C2)COC(=O)C3(O)CC` (centres unmarked) gave a Tmax of 6.76 h (human patients, plasma; intravenous, 75 mg/m^2 of parent drug).
`CC[C@@H]1C[C@]1(NC(=O)[C@@H]1C[C@@]2(CN1C(=O)[C@@H](NC(=O)[C@@H](NC(=O)[C@@H]1CCCCN1C(C)C)C1CCCCC1)C(C)(C)C)C(C)(C)C21CCC1)C(=O)NS(=O)(=O)N1CCCC1` — result for “subjects with nausea”: 50% (healthy human; oral, 1000 mg single dose).
`C/C=C/C=C/C/C=C/CCCCCCCc1cccc(O)c1O` gave a tissue concentration of 2870 ± 680 ng/g (female Kunming mice, tumour-bearing, liver; intravenous, 10 mg/kg, 12 h).

Repeated from above:
`CC(C)C[C@@H]1NC(=O)C[C@@H](C(=O)N[C@@H](Cc2c[nH]c3ccccc23)C(=O)N[C@@H](CC(N)=O)C(=O)N[C@@H](C)C(=O)N2CCC[C@H]2C(=O)NCC(=O)N[C@@H](Cc2c[nH]c3ccccc23)C(=O)N[C@@H](Cc2ccccc2)C(=O)O)NC(=O)[C@H](C)NC(=O)[C@H](CCC(N)=O)NC(=O)[C@H](C(C)C)NC(=O)[C@H](C)NC(=O)[C@H](C(C)C)NC(=O)[C@H](C(C)C)NC1=O` — result for thermal stability: “stable” (HPLC; 3 h, 95 °C).
With `CSCC[C@H](NC(=O)[C@H](Cc1ccc(O)cc1)NC(=O)[C@@H](CC(=O)O)NC(=O)CN1CCN(CC(=O)O)CCN(CC(=O)O)CCN(CC(=O)O)CC1)C(=O)NCC(=O)N[C@@H](Cc1c[nH]c2ccccc12)C(=O)N[C@@H](CCSC)C(=O)N[C@@H](CC(=O)O)C(=O)N[C@@H](Cc1ccccc1)C(N)=O` the tumour-to-kidney ratio was 0.06 (MF1 nude mouse, male, HT29-CCK2R xenograft; intravenous, 0.2 µg, 4 h, 111In-labelled; baseline: tumour over kidney).
